Assay results of several laboratories.
Each line is one published result; not all experiments were run side by side. ± marks the error that the study gave.

| SMILES | test | test system | setting | measured concentration |
| --- | --- | --- | --- | --- |
| Cc1[nH]c(/C=C2\C(=O)Nc3ccc(F)cc32)c(C)c1NC(=O)CCN1CCN(C)CC1 |  | dog plasma | 80 ng/mL nominal, 30 d, -80 °C, frozen storage | 71.3 ng/mL |
| CNC(=O)N[C@]1(C)CCC[C@@]2(C)C3CC[C@@]4(C)C[C@]3(CCC21)CC4=O (single isomer, unassigned) |  | processed rat plasma | 40 ng/mL, 24 h, 4 °C, autosampler stability | 39.7 ± 0.45 ng/mL |
| COC(=O)C(c1ccccc1Cl)N1CCC2SC(=O)C=C2C1 (stereo not shown) | LC-MS/MS | human plasma | 2 ng/mL spiked, 8 h, room temperature | 2.2 ± 0.4 ng/mL |
| COc1ccc(-c2cc(=O)c3c(O)cc(O[C@@H]4O[C@H](CO[C@@H]5O[C@@H](C)[C@H](O)[C@@H](O)[C@H]5O)[C@@H](O)[C@H](O)[C@H]4O)cc3o2)cc1 | freeze-thaw stability | rat plasma | 3 days, medium QC, 3 freeze-thaw cycles | 755 ± 16.5 ng/mL |
| COc1ccnc(C[S+]([O-])c2nc3cc(-n4cccc4)ccc3[nH]2)c1C (stereo not shown) |  | rat plasma | 2.5 ng/mL spiked, 4 h, room temperature, working solution:plasma 5:95 v/v | 2.52 ng/mL |
| Cc1ccc(/N=N/c2c(O)ccc3ccccc23)c(C)c1 |  | rat whole blood QC samples | 16.0 µg/L, 12 h, room temperature, short-term stability | 15.9 ng/mL |
| C[N+](C)(C)CC(CC(=O)[O-])OC(=O)CCC(=O)Nc1ccn([C@@H]2O[C@H](CO)[C@@H](O)C2(F)F)c(=O)n1 (stereo partly shown) |  | THU-treated rat plasma | 15.00 ng/mL, 2 months, -80 °C, frozen storage, low QC | 15.3 ± 1.9 ng/mL |
| Oc1ccc2ccccc2c1/N=N/c1ccccc1 |  | rat whole blood QC samples | 16.0 µg/L, 8 h, room temperature, short-term stability | 15.7 ng/mL |
| COC(=O)C(c1ccccc1Cl)N1CCC(SCC(=O)c2cccc(OC)c2)C(=CC(=O)O)C1 (stereo not shown) | LC-MS/MS | human plasma | 50 ng/mL, after freeze-thaw cycles | 51.5 ± 3.8 ng/mL |
| COc1ccc([C@@H]2CC(=O)c3c(O)cc(O[C@@H]4O[C@H](CO[C@@H]5O[C@@H](C)[C@H](O)[C@@H](O)[C@H]5O)[C@@H](O)[C@H](O)[C@H]4O)cc3O2)cc1O |  | rat plasma | 0.48 ng/mL, 12 h, room temperature, autosampler stability | 0.46 ± 0.04 ng/mL |

Excerpt of the above:
| SMILES | test | test system | setting | measured concentration |
| --- | --- | --- | --- | --- |
| COc1ccnc(C[S+]([O-])c2nc3cc(-n4cccc4)ccc3[nH]2)c1C (stereo not shown) |  | rat plasma | 2.5 ng/mL spiked, 4 h, room temperature, working solution:plasma 5:95 v/v | 2.52 ng/mL |
| Cc1[nH]c(/C=C2\C(=O)Nc3ccc(F)cc32)c(C)c1NC(=O)CCN1CCN(C)CC1 |  | dog plasma | 80 ng/mL nominal, 30 d, -80 °C, frozen storage | 71.3 ng/mL |
